Experimental data pooled from the literature.
Numbered parts are unrelated; each lists some results of a single study.

Study 1
Cell line: HEK-293T/ACE2
Tested at: concentration not given
Time: 16 (unit not given)
Relative to: vehicle
Quantity: viability
CC(=O)NCCCS(=O)(=O)O: 101%
COC(=O)c1ccccc1O: 98.2%
O=c1ccc2ccc(OCCCCN3CCN(c4cccc5sccc45)CC3)cc2[nH]1: 81.2%
C[C@@H](c1ncncc1F)[C@](O)(Cn1cncn1)c1ccc(F)cc1F: 101%

Study 2
Target: Replicase polyprotein 1ab, main protease (rep, Severe acute respiratory syndrome coronavirus 2, UniProt P0DTD1)
Read-out: enzyme activity
Mode: inhibitor
Setting: no DTT
Quantity: IC50
COc1cccc2c1C(=O)c1c(O)c3c(c(O)c1C2=O)C[C@@](O)(/C(CO)=N/NC(=O)CCCCCN1C(=O)C=CC1=O)C[C@@H]3O[C@H]1C[C@H](N)[C@H](O)[C@H](C)O1: 600 nM
COc1ccc2[nH]c([S+]([O-])Cc3ncc(C)c(OC)c3C)nc2n1 (centres unmarked): 1000 nM
CC1=C(/C=C/C(C)=C/C=C/C(C)=C/C(=O)O)C(C)(C)CCC1: > 20000 nM

Study 3
Target: Sal-like protein 4, full length isoform A (SALL4, Homo sapiens, UniProt Q9UJQ4, residues 1-1053)
Sequence of UniProt Q9UJQ4 (whole entry, looked up): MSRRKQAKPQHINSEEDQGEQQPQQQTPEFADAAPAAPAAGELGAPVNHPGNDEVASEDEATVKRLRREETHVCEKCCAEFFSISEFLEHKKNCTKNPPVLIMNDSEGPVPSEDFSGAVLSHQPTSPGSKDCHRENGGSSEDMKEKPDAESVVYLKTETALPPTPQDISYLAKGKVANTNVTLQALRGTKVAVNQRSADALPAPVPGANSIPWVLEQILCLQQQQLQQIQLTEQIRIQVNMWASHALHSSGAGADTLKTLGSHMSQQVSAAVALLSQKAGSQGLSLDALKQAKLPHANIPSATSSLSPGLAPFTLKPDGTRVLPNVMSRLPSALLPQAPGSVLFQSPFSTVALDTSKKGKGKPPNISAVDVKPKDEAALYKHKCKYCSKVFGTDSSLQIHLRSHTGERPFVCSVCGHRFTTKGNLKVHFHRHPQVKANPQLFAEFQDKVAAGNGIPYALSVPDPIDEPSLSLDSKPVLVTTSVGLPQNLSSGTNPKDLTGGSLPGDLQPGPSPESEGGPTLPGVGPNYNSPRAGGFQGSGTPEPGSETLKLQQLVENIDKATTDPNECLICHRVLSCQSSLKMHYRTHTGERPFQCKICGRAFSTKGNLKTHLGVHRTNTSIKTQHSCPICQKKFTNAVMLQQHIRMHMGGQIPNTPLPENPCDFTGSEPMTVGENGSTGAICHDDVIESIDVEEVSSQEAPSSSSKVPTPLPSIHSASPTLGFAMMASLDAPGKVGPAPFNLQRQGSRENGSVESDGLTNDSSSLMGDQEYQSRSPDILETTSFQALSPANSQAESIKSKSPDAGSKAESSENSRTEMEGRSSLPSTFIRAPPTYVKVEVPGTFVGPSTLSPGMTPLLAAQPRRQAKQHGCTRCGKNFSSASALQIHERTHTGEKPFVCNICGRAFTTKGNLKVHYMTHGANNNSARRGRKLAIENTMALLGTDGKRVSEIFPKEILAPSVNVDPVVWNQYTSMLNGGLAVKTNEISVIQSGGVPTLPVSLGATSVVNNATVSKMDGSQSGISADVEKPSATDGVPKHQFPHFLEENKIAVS
Method: universal PBM
Form: double-stranded DNA, one strand shown
Medium: in vitro
Tested at: 600 nM
Setting: 8-mer, flanks averaged, mean of replicates
Reading: higher = stronger binding
Quantity: E-score
AGTACCTC: -0.149
CGCAGCCC: -0.266
AGGGGCAT: -0.0435
CCGAAGTA: 0.0199
GATACACA: 0.107
ATCTTCTA: 0.0599
AGTTTGCA: 0.0527
CGCTTTAA: 0.0392

Study 4
Target: Ras GTPase-activating protein-binding protein 1, full length (G3BP1, Homo sapiens, UniProt Q13283)
Sequence of UniProt Q13283 (whole entry, looked up): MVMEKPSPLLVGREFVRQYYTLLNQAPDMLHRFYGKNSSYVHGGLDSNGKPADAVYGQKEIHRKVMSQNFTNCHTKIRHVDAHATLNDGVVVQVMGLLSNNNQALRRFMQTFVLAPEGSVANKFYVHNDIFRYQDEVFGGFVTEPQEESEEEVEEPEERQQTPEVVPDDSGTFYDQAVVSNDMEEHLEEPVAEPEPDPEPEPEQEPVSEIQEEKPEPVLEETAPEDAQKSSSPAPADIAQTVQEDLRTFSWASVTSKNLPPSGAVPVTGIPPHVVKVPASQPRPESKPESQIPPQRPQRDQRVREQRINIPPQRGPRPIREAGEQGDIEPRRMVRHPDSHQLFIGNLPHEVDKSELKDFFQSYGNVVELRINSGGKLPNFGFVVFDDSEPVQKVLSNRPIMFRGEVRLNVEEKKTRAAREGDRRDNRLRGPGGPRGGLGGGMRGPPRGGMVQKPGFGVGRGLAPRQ
Method: RNA Bind-n-Seq
Form: RNA
Medium: in vitro
Tested at: 200 nM
Setting: whole 134-nt RNA, ends assumed
Together with: 150 mM LiCl
Relative to: input library
Reading: higher = stronger binding
Quantity: log2 enrichment
Library: 7-deaza-guanosine replaces G
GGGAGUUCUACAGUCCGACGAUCCAAGUCCUGUGCUACACAUCGUAUGUACCGAAUCGGGAGGGUGGGUUUUUUUGGGAAAGUAUUAUGUUACGCCGUUCGGAUCUGCACUUCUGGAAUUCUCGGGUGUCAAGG: 0.0792
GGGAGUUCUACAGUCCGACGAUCUGGGAGGUGGAUUGUGUUUAUUUUUUUAGCUCAUUUCCAGGGGUGGGAAUUUUUUUUUAAUAUGUGUCAUGAAUAAAGUUGUUUUUGAAAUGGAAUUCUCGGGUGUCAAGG: 0.56
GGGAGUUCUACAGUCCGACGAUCCAAGUCCUGUGCUACACAUCGUAUGUACCGAAUCGGCCCCGGGCCCCGGCCCCGGAAAGUAUUAUGUUACGCCGUUCGGAUCUGCACUUCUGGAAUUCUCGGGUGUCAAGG: -0.154
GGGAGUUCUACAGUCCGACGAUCUCCUGUGCUACACAUCGUAUGUACCGAAUCGGGAAAAAGGGAAAAAGGGGAAAAAGGGGAAAGUAUUAUGUUACGCCGUUCGGAUCUGCAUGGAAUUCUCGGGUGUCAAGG: -0.255
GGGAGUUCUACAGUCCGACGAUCAGUCCUGUGCUACACAUCGUAUGUACCGAAUCGGGGAAAAGGGGAAAAGGAAAAGGGAAAGUAUUAUGUUACGCCGUUCGGAUCUGCACUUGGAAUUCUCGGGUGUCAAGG: -0.558
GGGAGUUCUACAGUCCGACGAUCGUCCUGUGCUACACAUCGUAUGUACCGAAUCGGGGAAAAGGGGAAAAGGGAAAAGGGGAAAGUAUUAUGUUACGCCGUUCGGAUCUGCACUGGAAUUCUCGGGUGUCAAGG: 0.325
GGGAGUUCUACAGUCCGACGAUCAGUCCUGUGCUACACAUCGUAUGUACCGAAUCGGGUUUUUGGGUUUGGGUUUUUGGGAAAGUAUUAUGUUACGCCGUUCGGAUCUGCACUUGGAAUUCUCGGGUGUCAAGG: -0.773
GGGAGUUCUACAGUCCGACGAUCUCCUGUGCUACACAUCGUAUGUACCGAAUCGGGCCCCCCCGGCCCCCCCGGCCCCCCCGGAAAGUAUUAUGUUACGCCGUUCGGAUCUGCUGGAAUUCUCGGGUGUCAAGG: 0.5

Study 5
Target: Replicase polyprotein 1ab, nsp13 helicase (rep, Severe acute respiratory syndrome coronavirus 2, UniProt P0DTD1)
Mode: inhibitor
Tested at: 20 µM
Quantity: inhibition
Cn1cccc1/C=C1\C(=O)NC(=O)c2ccccc21: 10.3%
Cc1noc(C)c1-c1ccc(-c2cc(C(N)=O)c(NC(N)=O)s2)c(O[C@H]2CCNC2)c1: 45.5%
Cc1c(S(=O)(=O)O)oc2c1C(=O)C(=O)c1c-2ccc2c1CCCC2(C)C: 18.5%
Cc1ccc(-c2ncc(Cl)cc2-c2ccc(S(C)(=O)=O)cc2)cn1: 7.39%
CC(C)=CCc1c(O)cc(O)c2c(=O)c(O)c(-c3ccc(C(F)(F)F)cc3)oc12: -3.23%
CNCc1cc(-c2ccccc2F)n(S(=O)(=O)c2cccnc2)c1: -0.78%
CC(C)(C)NCc1cc(Nc2ccnc3cc(Cl)ccc23)c2c(c1O)CCCC2: 1.56%
CN1CCc2nc(C(=O)N[C@@H]3C[C@@H](C(=O)N(C)C)CC[C@@H]3NC(=O)C(=O)Nc3ccc(Cl)cn3)sc2C1: 4.08%
O=C(O)COCCN1CCN([C@H](c2ccccc2)c2ccc(Cl)cc2)CC1: 6.01%
Oc1ccc(O)cc1: 4.67%
O=c1c2ccccc2nc2n1CCCCC2: 4.65%
CCCNCC(O)COc1ccccc1C(=O)CCc1ccccc1 (centres unmarked): 21.6%
CC(C)(C)NCC(O)COc1cccc2c1C[C@H](O)[C@H](O)C2 (mixture of isomers): 3.8%
CC(ONC(=O)c1cc(C(F)(F)F)cc(C(F)(F)F)c1)C(=O)Nc1ccc(Cl)cc1 (centres unmarked): -2.83%
CCCOc1ccc2[nH]cc(C3=CCNCC3)c2n1: 5.63%
CC[C@H]1OC(=O)[C@H](C)[C@@H](O[C@H]2C[C@@](C)(OC)[C@@H](O)[C@H](C)O2)[C@H](C)[C@@H](O[C@@H]2O[C@H](C)C[C@H](N(C)C)[C@H]2O)[C@](C)(O)C[C@@H](C)C(=O)[C@H](C)[C@@H](O)[C@]1(C)O: 2.71%
COc1cc2c(Oc3ccc4[nH]c(C)cc4c3F)ccnc2cc1OCC1(N)CC1: -0.5%
Cc1nc(-c2ccc(OCC(C)C)c(C#N)c2)sc1C(=O)O: 0.49%
COc1ccc(-c2ccc(=N)n(CCCC(=O)O)n2)cc1: 8.8%
CO[C@H]1CC[C@@H](C(=O)c2ccc3nc4c(cc3c2)CCCO4)CC1: 2.75%
CCN(CC)CCOCCOC(=O)C1(c2ccccc2)CCCC1: -4.14%
CC(C)NCC(O)c1ccccc1Cl (centres unmarked): 7.13%
COC(=O)C1=C(C)NC(C)=C(C(=O)O[C@@H]2CCCN(Cc3ccccc3)C2)[C@@H]1c1cccc([N+](=O)[O-])c1 (racemic): 0.79%
Nc1nc(OCc2cc(Br)cs2)c2[nH]cnc2n1: 9.21%
O=C(O)CN1CCN(CC(=O)O)CCN(CC(=O)O)CCN(CC(=O)O)CC1: 0.7%

Study 6
Target: Centromere-binding protein 1, full length, His-tagged (CBF1, Saccharomyces cerevisiae, UniProt P17106, residues 1-351)
Sequence of UniProt P17106 (whole entry, looked up): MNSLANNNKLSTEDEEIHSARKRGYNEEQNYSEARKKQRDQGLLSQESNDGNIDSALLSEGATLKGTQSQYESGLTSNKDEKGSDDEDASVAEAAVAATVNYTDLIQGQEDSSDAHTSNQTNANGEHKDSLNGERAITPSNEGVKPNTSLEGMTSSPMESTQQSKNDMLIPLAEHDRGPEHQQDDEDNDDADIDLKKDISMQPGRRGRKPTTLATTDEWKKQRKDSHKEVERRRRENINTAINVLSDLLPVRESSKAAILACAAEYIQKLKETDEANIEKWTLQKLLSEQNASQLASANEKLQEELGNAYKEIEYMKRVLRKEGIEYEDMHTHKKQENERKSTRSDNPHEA
Method: competition protein-binding microarray
Form: double-stranded DNA, one strand shown
Medium: in vitro
Tested at: 2 µM
Setting: whole 60-bp probe, lowest competitor level
Together with: Pho4 competitor, 0.05 µM
Reading: higher = stronger binding
Quantity: fluorescence intensity
GAGGTCGCTGCTCAACACGTACATGCAGAAGTAGTGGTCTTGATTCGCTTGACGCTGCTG: 63.5 a.u.
GTTACGTTCTGTGGTGGCGTGCCGACTTCCAAGTCCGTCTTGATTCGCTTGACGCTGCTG: 104 a.u.
TCATGATAGACTTTGTGCGTGGACCCCAAGCCAAAGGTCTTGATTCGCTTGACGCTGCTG: 80.3 a.u.
ACTAAACAGTATATTCACGTGATGGCTTTGCCTTACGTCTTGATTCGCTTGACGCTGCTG: 2230 a.u.
GAATTACTCATTTGTTTCGTGCGATTTCCTATTGCGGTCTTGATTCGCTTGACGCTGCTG: 92 a.u.
CTTCTGTAAATTTGTCACTTCACTTGACGCGCCCCGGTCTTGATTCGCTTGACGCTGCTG: 95.6 a.u.
TTCTTGATTAGGACGCCCATGAAGTGGGCCAGCCAAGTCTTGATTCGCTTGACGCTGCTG: 55.2 a.u.
ATCGCTTCCTCCTCCTACATGACAGAGCTGGTACGCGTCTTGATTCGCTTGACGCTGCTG: 74 a.u.

For quick reference, copied from above (study 5):
O=c1c2ccccc2nc2n1CCCCC2: 4.65%
CCCNCC(O)COc1ccccc1C(=O)CCc1ccccc1 (centres unmarked): 21.6%
CC(C)(C)NCC(O)COc1cccc2c1C[C@H](O)[C@H](O)C2 (mixture of isomers): 3.8%
CC(ONC(=O)c1cc(C(F)(F)F)cc(C(F)(F)F)c1)C(=O)Nc1ccc(Cl)cc1 (centres unmarked): -2.83%
CCCOc1ccc2[nH]cc(C3=CCNCC3)c2n1: 5.63%
CC[C@H]1OC(=O)[C@H](C)[C@@H](O[C@H]2C[C@@](C)(OC)[C@@H](O)[C@H](C)O2)[C@H](C)[C@@H](O[C@@H]2O[C@H](C)C[C@H](N(C)C)[C@H]2O)[C@](C)(O)C[C@@H](C)C(=O)[C@H](C)[C@@H](O)[C@]1(C)O: 2.71%
COc1cc2c(Oc3ccc4[nH]c(C)cc4c3F)ccnc2cc1OCC1(N)CC1: -0.5%
Cc1nc(-c2ccc(OCC(C)C)c(C#N)c2)sc1C(=O)O: 0.49%
COc1ccc(-c2ccc(=N)n(CCCC(=O)O)n2)cc1: 8.8%
